Results from different studies.
Numbered parts are unrelated; each lists some results of a single study.

Sample 1
Target: Fragile X messenger ribonucleoprotein 1, C-terminal low-complexity region (Fmr1, Mus musculus, UniProt P35922)
Technique: RNA Bind-n-Seq
Form: RNA
Matrix: in vitro
Concentration: 200 nM
Setting: whole 134-nt RNA, ends assumed
With: 150 mM LiCl
Baseline: input library
Reading: higher = stronger binding
All molecules: 7-deaza-guanosine replaces G
Constant ends, left off below: GGGAGUUCUACAGUCCGACGAUC … UGGAAUUCUCGGGUGUCAAGG
Strand	log2 enrichment
AGUCCUGUGCUACACAUCGUAUGUACCGAAUCGGGAGGGAAAAAAAGGGUUUUUGGGAAAGUAUUAUGUUACGCCGUUCGGAUCUGCACU	-2.03
UGUCCCUGGUGGCAUGCGGGGAGGAAGAGGUGGCCUCAUGGAUCGUGGUGGUCCCGGUGGAAUGUUCAGAGGUGGCCGUGGUGGAGACAG	-0.142
CACAGACAACACGCACCCACACAGACACAGAGGGAAGGGGUUAAAAUGGGGACAGGGUGCACAGCAGGGCGGGGUAGGACCCCAGCCCCU	-0.566
UGGCCCUGGUGGCAUGCGGGGAGGAAGAGGUGGCCUCAUGGAUCGUGGUGGUCCCGGUGGAAUGUUCAGAGGUGGCCGUGAUGGAGACAG	-1.04
GUCCUGUGCUACACAUCGUAUGUACCGAAUCGGGGAGGGGUUUGGGGUUUUUUUGGGGAAAGUAUUAUGUUACGCCGUUCGGAUCUGCAC	-0.739
CUGUGCUACACAUCGUAUGUACCGAAUCGGGGUUUUUUUGGGGUUUUUUUGGGGAAAGGGGAAAGUAUUAUGUUACGCCGUUCGGAUCUG	1.27
AGUCCUGUGCUACACAUCGUAUGUACCGAAUCGGGGAAAAGGGGAAAAGGGGAAAAGGAAAGUAUUAUGUUACGCCGUUCGGAUCUGCAC	0.114
GGCACAGGUGCCCGACCAUACACUGGGAAAGUUGGUGCUGAGGAUGCCGAUGGGAUUGACAUGGCCUACCGGGUGCUGGCUGACCACGCU	-2.76

Sample 2
Cell line: HEK-293T-ACE2
Concentration: concentration not given
Baseline: vehicle
Structure (SMILES)	cell number [%]
O=C(/C=C/c1cccc(S(=O)(=O)Nc2ccccc2)c1)NO	54.8
CCCC(CCC)C(=O)[O-].[Na+]	105
CC(=O)OC(C)OC(=O)C(C)c1ccc(-c2ccccc2)c(F)c1 (stereo not shown)	102

Sample 3
Target: TAR DNA-binding protein 43, full length, His tag (TARDBP, Homo sapiens, UniProt Q13148, residues 1-414)
Technique: RNA Bind-n-Seq
Form: RNA
Matrix: in vitro
Concentration: 20 nM
Setting: 6-mer, flanks averaged, single round
With: 150 mM LiCl
Baseline: input library
Reading: higher = stronger binding
Strand	6-mer enrichment (R)
GGUUUA	1.09
UGUAAG	1.12
AGUUAU	0.984
GACUGC	0.927
CGUUCU	0.87

Sample 4
Target: Sal-like protein 4, full length isoform A (SALL4, Homo sapiens, UniProt Q9UJQ4, residues 1-1053)
UniProt Q9UJQ4, sequence (whole entry, looked up): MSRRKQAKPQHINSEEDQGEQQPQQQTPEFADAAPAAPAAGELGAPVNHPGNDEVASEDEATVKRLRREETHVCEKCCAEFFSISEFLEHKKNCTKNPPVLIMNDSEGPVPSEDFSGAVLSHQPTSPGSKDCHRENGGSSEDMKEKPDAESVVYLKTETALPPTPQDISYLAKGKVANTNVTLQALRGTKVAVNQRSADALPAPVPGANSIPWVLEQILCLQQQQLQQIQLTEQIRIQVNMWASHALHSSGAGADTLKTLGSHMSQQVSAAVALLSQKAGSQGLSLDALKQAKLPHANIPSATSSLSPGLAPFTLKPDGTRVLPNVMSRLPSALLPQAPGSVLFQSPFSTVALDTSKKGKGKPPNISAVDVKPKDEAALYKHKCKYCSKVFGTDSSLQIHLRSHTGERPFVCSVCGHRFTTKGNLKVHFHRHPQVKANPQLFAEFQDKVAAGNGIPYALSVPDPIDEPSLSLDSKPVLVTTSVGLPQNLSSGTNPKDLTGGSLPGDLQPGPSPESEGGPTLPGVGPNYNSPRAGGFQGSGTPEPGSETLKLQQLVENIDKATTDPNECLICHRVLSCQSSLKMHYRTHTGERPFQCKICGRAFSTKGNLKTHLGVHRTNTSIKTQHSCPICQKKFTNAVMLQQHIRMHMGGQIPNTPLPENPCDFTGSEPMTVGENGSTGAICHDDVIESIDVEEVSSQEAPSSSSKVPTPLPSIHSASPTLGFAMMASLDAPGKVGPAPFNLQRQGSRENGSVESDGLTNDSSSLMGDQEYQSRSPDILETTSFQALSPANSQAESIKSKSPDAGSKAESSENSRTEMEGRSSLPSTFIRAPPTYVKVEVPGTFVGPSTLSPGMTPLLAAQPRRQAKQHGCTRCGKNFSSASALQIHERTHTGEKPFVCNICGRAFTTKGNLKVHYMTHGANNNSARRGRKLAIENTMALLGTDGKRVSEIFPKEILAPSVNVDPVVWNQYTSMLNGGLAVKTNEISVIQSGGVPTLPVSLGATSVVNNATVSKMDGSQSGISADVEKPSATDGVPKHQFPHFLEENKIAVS
Technique: universal PBM
Form: double-stranded DNA, one strand shown
Matrix: in vitro
Concentration: 600 nM
Setting: 8-mer, flanks averaged, mean of replicates
Reading: higher = stronger binding
Strand	E-score
CTACAAGC	-0.17
CGCACCCC	-0.289
CCGGCAGG	-0.273
TGATCAAA	0.085
CCCCGAGC	-0.171
ACCCATGG	-0.337
CCTTTTGC	-0.16
GCCAGGTA	-0.257

Sample 5
Target: Replicase polyprotein 1ab, polymerase (rep, Severe acute respiratory syndrome coronavirus 2, UniProt P0DTD1)
Observed: enzyme activity
Action: inhibitor
Concentration: 20 µM
SMILES	inhibition [%]
C[C@H]1NCc2cc(-c3ccc4c(=O)c(C(=O)O)cn(C5CC5)c4c3OC(F)F)ccc21	1.89
Cc1nnc(C[C@@H]2C=C(c3ccc(Cl)cc3)c3ccccc3-n3c(C)nnc32)o1	-4.46
CC1(C)C[C@@H]1C(=O)N/C(=C\CCCCSC[C@H](N)C(=O)O)C(=O)O	5.85
C=Cc1c(C)c2cc3nc(c(CC(=O)O)c4[nH]c(cc5nc(cc1[nH]2)C(C)=C5CC)c(C)c4C(=O)O)[C@@H](CCC(=O)O)[C@@H]3C	98.3
COc1cc(C[C@H](C)[C@H](C)Cc2ccc3c(c2)OCO3)ccc1O	-2.96
CC(C)(O)CNc1nc(Nc2ccnc(C(F)(F)F)c2)nc(-c2cccc(C(F)(F)F)n2)n1	3.13
CCN(CC)C(=O)/C(C#N)=C/c1cc(O)c(O)c([N+](=O)[O-])c1	3.57
N=C1NC(=O)/C(=C/c2ccc(O)cc2)S1	3.43
COc1ccc(Oc2c(Cl)cnn(C3c4ccccc4-c4ccccc43)c2=O)cc1	3.46
O=C(O)COc1ccc(C(=O)c2cccs2)c(Cl)c1Cl	3.03
CC(NCCC(c1ccccc1)c1ccccc1)c1ccccc1 (stereo not shown)	-9.59
C[C@H]1[C@@H](O)O[C@@H]2O[C@@]3(C)CC[C@H]4[C@H](C)CC[C@@H]1[C@@]24OO3	1.55
Clc1ccc2c(c1)N=C(N1CCNCC1)c1ccccc1N2	1.61
CCCCCCCCC(=O)N[C@H](CN1CCCC1)[C@H](O)c1ccc2c(c1)OCCO2	-3.51
Cc1ccc(/C=C2/C(=O)[C@]3(C)CC[C@H]2C3(C)C)cc1	-1.26
Cc1cnc(NC(=O)Nc2cc(Br)c(C)cc2OC[C@@H]2CNCCO2)cn1	2.21
CCCCc1ncc(/C=C(\Cc2cccs2)C(=O)O)n1Cc1ccc(C(=O)O)cc1	-5.23
COc1ccc(-c2oc3cc(OC)ccc3c2C(=O)c2ccc(C#N)cc2)cc1	0.5
CCCCCCCCCC(=O)OCCN1CCN(CCCN2c3ccccc3Sc3ccc(C(F)(F)F)cc32)CC1	-4.94
Cn1ncnc1[C@H]1c2n[nH]c(=O)c3cc(F)cc(c23)N[C@@H]1c1ccc(F)cc1	-5.72
Cc1sc(C)c2c1CCC=C2c1cnc[nH]1	-1.85
CC(C)(C)NCC(O)COc1cccc2[nH]c(=O)[nH]c12 (stereo not shown)	-6.83
Cc1c(C(=O)Nc2ccc(N3CCC(N4CCOCC4)CC3)c(C#N)c2)cnn1-c1ccc(Cl)cc1	-7.58
N#Cc1nn(-c2c(Cl)cc(C(F)(F)F)cc2Cl)c(N)c1[S+]([O-])C(F)(F)F (stereo not shown)	-3.58
O=C1c2ccccc2C(=O)C1c1ccc(Cl)cc1	-3.12

Sample 6
Target: Replicase polyprotein 1ab, main protease (rep, Severe acute respiratory syndrome coronavirus 2, UniProt P0DTD1)
Observed: enzyme activity
Action: inhibitor
Concentration: 20 µM
Setting: primary screen
Compound	inhibition
N[C@@H](Cc1cc(-c2ccc(Cl)cc2Cl)cc(CP(=O)(O)O)c1O)C(=O)O	43.3%
O=[N+]([O-])C(Br)(CO)CO	99.9%
O=C(O[C@@H]1Cc2c(O)cc(O)cc2O[C@@H]1c1ccc(O)c(O)c1)c1cc(O)c(O)c(O)c1	58.2%

Some of these lines once more (sample 5):
SMILES	inhibition [%]
CC1(C)C[C@@H]1C(=O)N/C(=C\CCCCSC[C@H](N)C(=O)O)C(=O)O	5.85
N#Cc1nn(-c2c(Cl)cc(C(F)(F)F)cc2Cl)c(N)c1[S+]([O-])C(F)(F)F (stereo not shown)	-3.58
COc1ccc(Oc2c(Cl)cnn(C3c4ccccc4-c4ccccc43)c2=O)cc1	3.46
